Assay results pooled from the literature.
Parts stem from different laboratories: compare values within a part only. Values joined by “and” are separate records of one study, mostly repeats; a detail may differ.
Sequence of UniProt O70423 (whole entry, looked up): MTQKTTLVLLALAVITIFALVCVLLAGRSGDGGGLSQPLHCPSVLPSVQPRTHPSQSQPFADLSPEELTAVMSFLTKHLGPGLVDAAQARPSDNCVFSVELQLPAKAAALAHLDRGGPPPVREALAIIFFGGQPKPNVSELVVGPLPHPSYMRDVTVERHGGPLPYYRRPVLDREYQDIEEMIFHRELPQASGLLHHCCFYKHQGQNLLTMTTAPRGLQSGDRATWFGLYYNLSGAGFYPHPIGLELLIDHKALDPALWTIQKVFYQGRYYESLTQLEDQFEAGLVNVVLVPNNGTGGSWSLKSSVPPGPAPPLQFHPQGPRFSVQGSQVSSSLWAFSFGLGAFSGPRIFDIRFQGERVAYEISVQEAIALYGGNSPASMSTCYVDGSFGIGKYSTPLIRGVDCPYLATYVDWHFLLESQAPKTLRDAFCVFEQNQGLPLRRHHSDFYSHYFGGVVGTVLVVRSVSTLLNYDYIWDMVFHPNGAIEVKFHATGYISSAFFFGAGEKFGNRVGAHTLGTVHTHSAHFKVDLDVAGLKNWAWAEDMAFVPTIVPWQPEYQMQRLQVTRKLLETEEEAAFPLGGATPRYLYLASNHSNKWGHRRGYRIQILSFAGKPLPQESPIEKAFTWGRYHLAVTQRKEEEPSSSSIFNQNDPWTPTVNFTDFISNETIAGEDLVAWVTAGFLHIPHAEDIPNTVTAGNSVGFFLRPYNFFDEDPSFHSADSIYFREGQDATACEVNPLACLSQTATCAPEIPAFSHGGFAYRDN

Set 1
Structure (SMILES): Cc1ccc(O)c(C)c1-c1cnc2[nH]c(-c3cnc(N)nc3)cc2c1C#N
Endpoint: inhibition
PKMYT1: Membrane-associated tyrosine- and threonine-specific cdc2-inhibitory kinase (PKMYT1, Homo sapiens, UniProt Q99640)
Sequence of UniProt Q99640 (whole entry, looked up): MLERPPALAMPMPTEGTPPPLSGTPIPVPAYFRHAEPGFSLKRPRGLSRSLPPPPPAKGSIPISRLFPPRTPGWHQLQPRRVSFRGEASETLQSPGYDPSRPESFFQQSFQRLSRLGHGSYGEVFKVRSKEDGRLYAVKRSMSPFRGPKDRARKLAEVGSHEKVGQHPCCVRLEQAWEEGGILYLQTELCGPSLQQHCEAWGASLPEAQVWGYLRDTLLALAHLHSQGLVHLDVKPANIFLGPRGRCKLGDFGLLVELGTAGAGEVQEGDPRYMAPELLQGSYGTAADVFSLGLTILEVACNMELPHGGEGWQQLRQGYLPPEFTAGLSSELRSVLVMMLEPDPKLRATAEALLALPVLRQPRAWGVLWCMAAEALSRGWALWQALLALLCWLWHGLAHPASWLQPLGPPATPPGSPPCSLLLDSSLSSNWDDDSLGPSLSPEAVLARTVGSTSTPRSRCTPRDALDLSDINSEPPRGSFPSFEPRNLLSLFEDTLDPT
HuCCT-1; cell proliferation; 4.57 nM: -0.94%
MKN-1; cell proliferation; 1111.11 nM: 87.9%
HCC1569; automated capillary immunoblot, measured: CDK1 phospho-Thr14; 4.12 nM: 15.8%
MKN-1; cell proliferation; 3333.33 nM: 98.4%
PKMYT1; enzyme activity, inhibitor; 4.115 nM: 68.1%
PKMYT1; enzyme activity, inhibitor; 4.12 nM: 87%
U-251 MG; cell growth; 10000 nM: 77.4%
KLE; cell proliferation; 10000 nM: 93.8%
HCC1806; cell proliferation; 10000 nM: 99%
HCC1569; automated capillary immunoblot, measured: CDK1 phospho-Thr14; 0.02 nM: 14.3%
HCC1569; automated capillary immunoblot, measured: CDK1 phospho-Thr14; 12.35 nM: 36.9%
PKMYT1; 5.1e-05 µM: -1.39% and -3.07%
KLE; cell proliferation; 370.37 nM: 27.6%
PKMYT1; cell-free assay, TR-FRET; 0.3333 µM: 101%
MKN-1; cell proliferation; 4.572 nM: -2.3%
PKMYT1; 5e-05 µM: -3.42% and 1.66%
HCC1569; automated capillary immunoblot, measured: CDK1 phospho-Thr14; 37.04 nM: 43.4%

Set 2
SMILES: C[C@@H]1CN(c2ccc(-c3cc(C(=O)NCCOCCOCCOCCOCCOCCOCCNC(=O)/C=C/c4[nH]cc(C(=O)N[C@@H](CC(N)=O)c5ccc(F)c(Cl)c5)c4-c4ccc(Cl)cc4F)ccc3F)cc2NC(=O)c2ccc(F)cc2C(F)(F)F)C[C@H](C)N1C
Read-out: thermal unfolding
Technique: differential scanning fluorimetry
Concentration: 5.5 µM
Reading: higher = more unfolded
Endpoint: SYPRO Orange fluorescence
DCAF1: DDB1- and CUL4-associated factor 1 (DCAF1, Homo sapiens, UniProt Q9Y4B6)
Sequence of UniProt Q9Y4B6 (whole entry, looked up): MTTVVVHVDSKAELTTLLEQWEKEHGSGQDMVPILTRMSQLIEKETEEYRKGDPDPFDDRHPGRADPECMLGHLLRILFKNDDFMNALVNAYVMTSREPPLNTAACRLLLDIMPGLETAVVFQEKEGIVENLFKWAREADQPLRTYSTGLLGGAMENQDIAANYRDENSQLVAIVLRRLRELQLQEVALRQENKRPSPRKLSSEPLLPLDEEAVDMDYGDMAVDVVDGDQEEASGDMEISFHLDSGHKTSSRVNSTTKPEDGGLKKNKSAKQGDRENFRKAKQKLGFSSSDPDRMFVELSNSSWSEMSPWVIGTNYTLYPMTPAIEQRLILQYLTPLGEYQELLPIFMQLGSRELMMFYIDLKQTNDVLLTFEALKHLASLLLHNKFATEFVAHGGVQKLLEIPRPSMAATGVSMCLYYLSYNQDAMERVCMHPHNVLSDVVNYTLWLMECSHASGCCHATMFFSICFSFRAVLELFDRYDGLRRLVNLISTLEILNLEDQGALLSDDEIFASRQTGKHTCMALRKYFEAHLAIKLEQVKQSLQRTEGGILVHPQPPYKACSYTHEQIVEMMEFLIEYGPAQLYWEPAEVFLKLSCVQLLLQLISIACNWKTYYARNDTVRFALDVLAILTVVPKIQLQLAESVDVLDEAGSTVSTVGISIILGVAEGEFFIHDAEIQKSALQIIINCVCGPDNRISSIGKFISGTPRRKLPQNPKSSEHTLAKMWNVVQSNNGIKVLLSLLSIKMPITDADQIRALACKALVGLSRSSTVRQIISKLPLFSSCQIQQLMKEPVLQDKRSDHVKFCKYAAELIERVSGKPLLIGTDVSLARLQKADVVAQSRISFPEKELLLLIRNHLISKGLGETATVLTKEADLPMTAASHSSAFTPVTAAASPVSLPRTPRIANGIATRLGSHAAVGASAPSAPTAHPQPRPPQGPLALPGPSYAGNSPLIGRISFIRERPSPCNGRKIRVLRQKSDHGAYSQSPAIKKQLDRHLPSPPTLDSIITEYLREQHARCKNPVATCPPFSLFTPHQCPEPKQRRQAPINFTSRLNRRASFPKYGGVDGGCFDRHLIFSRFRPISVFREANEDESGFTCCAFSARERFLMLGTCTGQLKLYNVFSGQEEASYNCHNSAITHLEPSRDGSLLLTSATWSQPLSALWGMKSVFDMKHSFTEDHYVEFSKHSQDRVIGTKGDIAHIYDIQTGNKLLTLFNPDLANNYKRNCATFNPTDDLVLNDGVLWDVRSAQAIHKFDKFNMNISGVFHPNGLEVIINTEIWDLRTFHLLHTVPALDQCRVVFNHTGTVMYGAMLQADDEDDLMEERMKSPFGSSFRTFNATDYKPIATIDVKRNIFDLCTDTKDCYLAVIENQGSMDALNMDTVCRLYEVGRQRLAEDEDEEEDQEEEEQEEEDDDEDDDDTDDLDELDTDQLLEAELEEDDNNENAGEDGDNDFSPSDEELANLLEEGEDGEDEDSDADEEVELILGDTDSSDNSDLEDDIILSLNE
WDR5: WD repeat-containing protein 5 (WDR5, Homo sapiens, UniProt P61964)
DCAF1; 90.01 °C: 32300 a.u.
WDR5; 77.61 °C: 59100 a.u.
WDR5; 35.6 °C: 14000 a.u.
WDR5; 83.41 °C: 64400 a.u.
DCAF1; 30.4 °C: 8480 a.u.
DCAF1; 25.2 °C: 7490 a.u.
DCAF1; 39.8 °C: 11300 a.u.
WDR5; 34.4 °C: 13800 a.u.
WDR5; 42.4 °C: 14400 a.u.
DCAF1; 35 °C: 9900 a.u.
WDR5; 68.21 °C: 22200 a.u.

Other studies, line by line
MPO: Myeloperoxidase (MPO, Homo sapiens, UniProt P05164)
Sequence of UniProt P05164 (whole entry, looked up): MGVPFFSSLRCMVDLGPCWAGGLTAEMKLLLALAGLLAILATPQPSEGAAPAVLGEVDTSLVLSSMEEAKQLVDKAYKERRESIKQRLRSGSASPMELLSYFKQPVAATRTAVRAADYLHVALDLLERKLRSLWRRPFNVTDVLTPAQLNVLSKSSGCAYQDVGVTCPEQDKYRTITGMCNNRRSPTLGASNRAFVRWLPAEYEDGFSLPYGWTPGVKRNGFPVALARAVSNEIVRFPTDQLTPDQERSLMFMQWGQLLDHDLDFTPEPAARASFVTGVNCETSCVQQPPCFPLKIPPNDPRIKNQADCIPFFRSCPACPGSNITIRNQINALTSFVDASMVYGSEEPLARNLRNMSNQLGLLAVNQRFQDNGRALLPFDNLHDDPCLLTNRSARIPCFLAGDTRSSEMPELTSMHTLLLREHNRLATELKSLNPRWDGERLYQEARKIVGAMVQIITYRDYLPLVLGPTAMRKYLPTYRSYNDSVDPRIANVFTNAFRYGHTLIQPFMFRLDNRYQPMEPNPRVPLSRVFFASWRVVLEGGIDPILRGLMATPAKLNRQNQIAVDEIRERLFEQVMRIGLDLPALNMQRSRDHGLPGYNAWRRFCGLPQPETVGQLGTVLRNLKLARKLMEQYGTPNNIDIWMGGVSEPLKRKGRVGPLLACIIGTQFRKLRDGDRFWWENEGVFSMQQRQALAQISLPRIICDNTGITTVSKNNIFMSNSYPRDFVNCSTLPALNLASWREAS
O=c1[nH]c(=S)n(C[C@H]2CCCO2)c2nc[nH]c12
inhibition (MPO; enzyme activity; 0.0412 µM): 32.7% and 21.8% and 42.7% and 38.2% and 47.1% and 44.9%

Cc1ncsc1-c1ccc(C2(NC(=O)C3CC(O)CN3C(=O)C(NC(=O)c3ccc(COc4c(-c5c(C)c(F)cc6[nH]ncc56)c(C5CC5)cc5c(N6CC7CC6CN7)nc(OC6CCOCC6)nc45)cc3)C(C)(C)C)CC2)cc1 (stereo not shown)
koff (von Hippel-Lindau disease tumor suppressor, with Elongin B/C (VHL, Homo sapiens, UniProt P40337); SPR, single-cycle; immobilized VCB complex; binary): 0.053 s⁻¹ and 0.0418 s⁻¹ and 0.0412 s⁻¹

COc1ccc(Cl)cc1-c1cc(=O)[nH]c(=S)n1CC(N)=O
remaining activity (MPO; enzyme activity, inhibitor; 0.136 µM): 85.1%

Cc1ncsc1-c1ccc(C(CO)NC(=O)C2CC(O)CN2C(=O)C(C(C)C)n2cc(-c3ccc(COc4c(-c5c(C)c(F)cc6[nH]ncc56)c(C5CC5)cc5c(N6CC7CC6CN7)nc(OC6CCOCC6)nc45)cc3)nn2)cc1 (stereo not shown)
plasma concentration (mouse PK-59 xenograft, plasma; intravenous, 30 mg/kg, 48 h): 14.4 ng/mL

CS(=O)(=O)c1ccc(OC/C(=C/F)CN)cc1.Cl
activity response (Amine oxidase [copper-containing] 3 (Mus musculus, UniProt O70423); enzyme activity; mouse adipose tissue; concentration not given): 91%

NC/C(=C\F)COc1cccc(Cn2c(=O)[nH]c(=O)c3[nH]cnc32)c1
inhibition (MPO; H2O2 consumption, inhibitor, Amplex Red; 5.081e-05 µM): -3.69%

A few entries again (set 1):
HCC1569; automated capillary immunoblot, measured: CDK1 phospho-Thr14; 12.35 nM: 36.9%
MKN-1; cell proliferation; 4.572 nM: -2.3%
